# Results from different studies.
# ± marks the error that the study gave.
# Itpr1 del318-332/R504Q N-terminal region: Inositol 1,4,5-trisphosphate-gated calcium channel ITPR1, N-terminal region (Itpr1, Rattus norvegicus, UniProt P29994, del318-332/R504Q)
# ALB: Albumin (ALB, Bos taurus, UniProt P02769)
# UniProt P02769, sequence (whole entry, looked up): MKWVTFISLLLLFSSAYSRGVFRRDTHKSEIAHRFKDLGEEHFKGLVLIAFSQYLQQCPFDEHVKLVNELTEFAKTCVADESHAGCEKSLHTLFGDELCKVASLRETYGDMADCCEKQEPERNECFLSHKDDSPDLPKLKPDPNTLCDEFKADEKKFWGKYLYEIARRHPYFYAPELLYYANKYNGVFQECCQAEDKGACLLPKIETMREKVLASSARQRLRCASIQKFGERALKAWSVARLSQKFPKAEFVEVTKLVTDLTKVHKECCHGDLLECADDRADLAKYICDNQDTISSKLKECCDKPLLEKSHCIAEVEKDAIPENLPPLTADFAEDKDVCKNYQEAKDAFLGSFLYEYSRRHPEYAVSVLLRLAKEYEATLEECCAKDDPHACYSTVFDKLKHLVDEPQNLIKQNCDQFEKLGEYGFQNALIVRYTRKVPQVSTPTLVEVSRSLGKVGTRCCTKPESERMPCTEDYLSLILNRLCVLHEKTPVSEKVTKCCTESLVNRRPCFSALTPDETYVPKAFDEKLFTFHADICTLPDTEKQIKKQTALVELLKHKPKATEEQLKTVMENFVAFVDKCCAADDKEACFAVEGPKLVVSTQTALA
# Beta-lactamase CTX-M-14: Beta-lactamase CTX-M-14 (Escherichia coli, UniProt Q9L5C7)
# UniProt Q00535, sequence (whole entry, looked up): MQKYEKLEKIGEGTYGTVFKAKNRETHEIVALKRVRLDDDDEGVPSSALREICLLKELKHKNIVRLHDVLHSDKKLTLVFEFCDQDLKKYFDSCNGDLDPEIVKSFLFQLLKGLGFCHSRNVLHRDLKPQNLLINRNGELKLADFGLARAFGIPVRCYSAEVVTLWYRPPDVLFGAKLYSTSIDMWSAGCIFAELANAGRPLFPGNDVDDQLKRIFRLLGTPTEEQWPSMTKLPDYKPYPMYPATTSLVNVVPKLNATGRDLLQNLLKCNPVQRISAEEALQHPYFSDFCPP
# UniProt P10636, sequence (whole entry, looked up): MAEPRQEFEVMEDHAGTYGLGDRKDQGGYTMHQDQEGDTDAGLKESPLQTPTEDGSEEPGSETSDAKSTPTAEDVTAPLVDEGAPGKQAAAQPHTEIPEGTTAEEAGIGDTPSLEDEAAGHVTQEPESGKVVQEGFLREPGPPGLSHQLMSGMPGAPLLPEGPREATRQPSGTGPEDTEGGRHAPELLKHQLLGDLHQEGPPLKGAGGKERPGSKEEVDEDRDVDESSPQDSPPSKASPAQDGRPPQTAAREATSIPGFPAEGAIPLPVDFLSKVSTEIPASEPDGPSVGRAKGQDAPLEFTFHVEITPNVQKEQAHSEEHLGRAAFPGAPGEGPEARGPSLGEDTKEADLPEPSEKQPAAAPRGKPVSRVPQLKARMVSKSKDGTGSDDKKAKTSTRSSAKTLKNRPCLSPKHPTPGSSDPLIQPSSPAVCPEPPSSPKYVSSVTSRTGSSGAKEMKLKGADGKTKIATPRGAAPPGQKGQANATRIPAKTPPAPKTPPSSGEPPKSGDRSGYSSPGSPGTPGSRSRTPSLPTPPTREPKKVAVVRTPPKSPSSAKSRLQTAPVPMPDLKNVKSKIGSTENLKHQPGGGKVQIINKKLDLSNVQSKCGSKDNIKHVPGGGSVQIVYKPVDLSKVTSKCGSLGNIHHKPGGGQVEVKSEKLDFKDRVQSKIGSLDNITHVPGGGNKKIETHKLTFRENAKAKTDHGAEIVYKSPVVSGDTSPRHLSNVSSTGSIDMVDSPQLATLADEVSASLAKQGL
# UniProt P01127, sequence (whole entry, looked up): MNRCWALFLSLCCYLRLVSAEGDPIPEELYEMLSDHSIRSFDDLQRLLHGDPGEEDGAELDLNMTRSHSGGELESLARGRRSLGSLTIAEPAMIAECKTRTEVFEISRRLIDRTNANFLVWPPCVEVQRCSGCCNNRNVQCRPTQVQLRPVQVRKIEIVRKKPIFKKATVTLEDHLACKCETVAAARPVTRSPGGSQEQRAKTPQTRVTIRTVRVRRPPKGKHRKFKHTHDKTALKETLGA
# UniProt O43570, sequence (whole entry, looked up): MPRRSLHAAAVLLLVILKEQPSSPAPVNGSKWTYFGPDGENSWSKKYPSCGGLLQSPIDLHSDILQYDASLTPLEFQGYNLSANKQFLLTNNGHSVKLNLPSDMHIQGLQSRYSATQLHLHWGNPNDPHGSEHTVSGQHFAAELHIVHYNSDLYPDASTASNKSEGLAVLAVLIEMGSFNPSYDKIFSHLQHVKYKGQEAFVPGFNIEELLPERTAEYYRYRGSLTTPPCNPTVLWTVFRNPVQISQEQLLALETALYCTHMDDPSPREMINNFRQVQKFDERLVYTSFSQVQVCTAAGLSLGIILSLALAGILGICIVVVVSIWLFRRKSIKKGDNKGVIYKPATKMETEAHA
# UniProt O43189, sequence (whole entry, unmodified, looked up): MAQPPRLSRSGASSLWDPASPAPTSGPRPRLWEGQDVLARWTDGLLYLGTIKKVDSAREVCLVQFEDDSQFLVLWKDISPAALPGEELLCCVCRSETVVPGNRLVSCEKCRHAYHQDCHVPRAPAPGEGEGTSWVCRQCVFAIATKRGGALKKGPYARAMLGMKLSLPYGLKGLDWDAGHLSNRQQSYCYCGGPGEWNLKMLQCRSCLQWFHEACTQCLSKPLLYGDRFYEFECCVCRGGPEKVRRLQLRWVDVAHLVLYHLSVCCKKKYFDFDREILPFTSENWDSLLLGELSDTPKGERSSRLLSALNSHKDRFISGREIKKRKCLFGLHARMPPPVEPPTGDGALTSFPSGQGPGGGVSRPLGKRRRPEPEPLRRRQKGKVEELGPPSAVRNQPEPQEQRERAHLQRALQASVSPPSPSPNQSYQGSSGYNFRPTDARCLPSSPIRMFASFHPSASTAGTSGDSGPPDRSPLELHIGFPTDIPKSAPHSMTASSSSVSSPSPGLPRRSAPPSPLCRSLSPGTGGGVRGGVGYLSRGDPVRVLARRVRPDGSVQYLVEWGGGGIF
# UniProt P02794, sequence (whole entry, looked up): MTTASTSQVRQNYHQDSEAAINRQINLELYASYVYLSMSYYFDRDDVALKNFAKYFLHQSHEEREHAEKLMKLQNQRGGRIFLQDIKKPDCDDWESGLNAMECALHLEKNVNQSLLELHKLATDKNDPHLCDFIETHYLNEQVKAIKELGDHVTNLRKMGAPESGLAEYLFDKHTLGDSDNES
# UniProt P30041, sequence (whole entry, looked up): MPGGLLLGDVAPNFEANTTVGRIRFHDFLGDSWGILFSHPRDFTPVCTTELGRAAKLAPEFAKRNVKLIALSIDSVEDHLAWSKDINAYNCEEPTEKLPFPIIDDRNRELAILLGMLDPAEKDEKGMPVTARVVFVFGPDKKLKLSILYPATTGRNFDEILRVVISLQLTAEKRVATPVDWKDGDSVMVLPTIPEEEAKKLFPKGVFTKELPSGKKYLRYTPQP
# UniProt P14618, sequence (whole entry, looked up): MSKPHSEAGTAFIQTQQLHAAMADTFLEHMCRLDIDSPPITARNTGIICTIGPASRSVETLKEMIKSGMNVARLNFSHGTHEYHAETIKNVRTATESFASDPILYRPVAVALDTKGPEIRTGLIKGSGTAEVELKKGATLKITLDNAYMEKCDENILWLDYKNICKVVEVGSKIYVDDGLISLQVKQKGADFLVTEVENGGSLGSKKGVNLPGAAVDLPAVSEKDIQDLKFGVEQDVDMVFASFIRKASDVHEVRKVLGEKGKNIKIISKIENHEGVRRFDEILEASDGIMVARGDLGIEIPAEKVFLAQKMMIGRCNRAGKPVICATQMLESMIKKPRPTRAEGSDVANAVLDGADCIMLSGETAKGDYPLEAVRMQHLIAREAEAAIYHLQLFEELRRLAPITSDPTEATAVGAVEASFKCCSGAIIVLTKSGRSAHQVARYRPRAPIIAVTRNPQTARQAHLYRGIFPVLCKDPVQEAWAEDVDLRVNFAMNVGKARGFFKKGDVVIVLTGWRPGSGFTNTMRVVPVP
SMILES,target,assay,test system,conditions,Kd [µM]
O=P(O)(O)O[C@@H]1[C@@H](O)[C@@H](O[C@@H]2COC[C@@H]2OP(=O)(O)O)O[C@H](CO)[C@H]1OP(=O)(O)O,Itpr1 del318-332/R504Q N-terminal region,[3H]IP3 competition binding,,N-terminal fragment R504Q,0.0525
C#CCN1c2ccccc2C=Cc2ccccc21,"Pyruvate kinase PKM (PKM, Homo sapiens, UniProt P14618)","binding, SPR",,,40
OC(Cc1cc(-c2ccc(C(O)C(F)(F)F)s2)sc1-c1ccc(-c2sc(-c3ccc(C(O)C(F)(F)F)s3)cc2CC(O)C(F)(F)F)s1)C(F)(F)F (stereo not shown),"Microtubule-associated protein tau, 0N4R isoform, aggregated (MAPT, Homo sapiens, UniProt P10636)","binding, fluorescence",50% sucrose tau fraction,,1.08 ± 0.17
CC(C)[C@H](NC(=O)CNC(=O)CNC(=O)[C@@H](NC(=O)[C@H](C)NC(=O)[C@@H]1CCCN1C(=O)[C@H](C)NC(=O)[C@@H](N)CO)[C@@H](C)O)C(=O)N[C@@H](CCCC[N+](C)(C)C)C(=O)N[C@@H](CCCCN)C(=O)N1CCC[C@H]1C(=O)N[C@@H](Cc1c[nH]cn1)C(=O)N[C@@H](CCCNC(=N)N)C(=O)N[C@@H](Cc1ccc(O)cc1)C(=O)N[C@@H](CCCNC(=N)N)C(=O)N1CCC[C@H]1C(=O)O,"PHD finger protein 1, Tudor domain W41A (Homo sapiens, UniProt O43189, W41A)","binding, isothermal titration calorimetry",,with: histone H3 peptide,30.1 ± 10.9
CC1(C)CC(=O)C2=C(C1)Oc1ncnc(Nc3ccc([N+](=O)[O-])cc3)c1C2c1ccccc1F (stereo not shown),ALB,absorption titration,,"pH 7.2, 25 °C",6.1
CCCCCCCC(=O)N[C@@H](CCN)C(=O)N[C@H](C(=O)N[C@@H](CCN)C(=O)N[C@H]1CCNC(=O)[C@H]([C@@H](C)O)NC(=O)[C@H](CC(N)=O)NC(=O)[C@H](CCN)NC(=O)[C@H](CC(C)C)NC(=O)[C@@H](Cc2ccccc2)NC(=O)[C@H](CCN)NC1=O)[C@@H](C)O,anti-polymyxin B mouse IgM mAb,SPR,,25 °C,> 25
CC(=O)NCCN(CCC(=O)NCCN(CCC(=O)NCCN(CCC(=O)NCCC(N)=O)C(=O)[C@@H](N)Cc1ccccc1)C(=O)[C@@H](N)CCCNC(=N)N)C(=O)[C@@H](N)CCCNC(=N)N,HIV-1 TAR RNA (18-44),fluorescence,,"25 °C, with: 100-fold excess natural tRNA",0.7 ± 0.2
CCCCCCCCCCCCCC(=O)Nc1ccccc1SSc1ccccc1NC(=O)CCCCCCCCCCCCC,ALB,"binding, fluorescence quenching, no site marker",,"pH 7.4, 298 K",0.261
CC(=O)Oc1c2c(c3ccc4c(c3c1OC(C)=O)C=CC(=O)C4(C)C)OC[C@@H]2C,"Ferritin heavy chain (Homo sapiens, UniProt P02794)","binding, microscale thermophoresis",,,5.46
CC(C)C[C@H](NC(=O)[C@H](CCCCN)NC(=O)[C@H](CCCCN)NC(=O)[C@H](C)NC(=O)[C@H](CCCCN)NC(=O)[C@H](CCCCN)NC(=O)[C@@H]1CCCN1C(=O)[C@@H](NC(=O)[C@H](CCCCN)NC(=O)[C@@H]1CCCN1)[C@@H](C)O)C(=O)O,"Cyclin-dependent kinase 5, with p25 (CDK5, Homo sapiens, UniProt Q00535)",substrate,,0.2 mM free Mg2+,12 ± 0.7
CCCCCCCC(=O)N[C@@H](CCN)C(=O)N[C@H](C(=O)N[C@@H](CCN)C(=O)N[C@H]1CCNC(=O)[C@H]([C@@H](C)O)NC(=O)[C@H](CCN)NC(=O)[C@H](CCN)NC(=O)[C@H](CC(C)C)NC(=O)[C@@H](CCSC)NC(=O)[C@H](CCN)NC1=O)[C@@H](C)O,anti-polymyxin B mouse IgM mAb,SPR,,25 °C,13.4
CC1(C)CC(=O)C2=C(C1)Oc1ncnc(Nc3ccc(F)cc3)c1C2c1ccccc1F (stereo not shown),ALB,absorption titration,,"pH 7.2, 25 °C",3.04
C=CC(=O)N1C[C@H](C)N(c2nc(OC[C@@]34CCCN3C[C@H](F)C4)nc3c(F)c(-c4ccc(F)c5sc(N)c(C#N)c45)c(C(F)(F)F)cc23)C[C@H]1C,"HIPK1 (Homo sapiens, UniProt Q86Z02)","binding, competition with immobilised ligand",,,10
CC(=O)NCCN(CC(=O)NCCN(CC(=O)NCCN(CC(=O)NCCC(N)=O)C(=O)C[C@@H](N)CCCCN)C(=O)C[C@@H](N)Cc1ccccc1)C(=O)C[C@@H](N)Cc1ccccc1,HIV-1 TAR RNA (18-44),fluorescence,,"25 °C, with: 100-fold excess natural tRNA",0.4 ± 0.1
CCCCCCCCCCCCCCCC(=O)Nc1ccccc1SSc1ccccc1NC(=O)CCCCCCCCCCCCCCC,ALB,"binding, fluorescence quenching",,"pH 7.4, 298 K, with: warfarin (site I marker)",261
CC(=O)NCCN(CCC(=O)NCCN(CCC(=O)NCCN(CCC(=O)NCCC(N)=O)C(=O)[C@@H](N)CCCNC(=N)N)C(=O)[C@@H](N)CCCNC(=N)N)C(=O)[C@@H](N)Cc1ccccc1,HIV-1 TAR RNA (18-44),fluorescence,,"25 °C, with: 100-fold excess 15-mer duplex DNA",0.6 ± 0.15
O=C(Nc1cccc(-c2nn[nH]n2)c1)c1cc(-c2ccncn2)cc(C(F)(F)F)c1,Beta-lactamase CTX-M-14,surface plasmon resonance,,25 °C,8.34 ± 0.08
CC(=O)NCCN(CC(=O)NCCN(CC(=O)NCCN(CC(=O)NCCC(N)=O)C(=O)C[C@@H](N)Cc1ccccc1)C(=O)C[C@@H](N)CCCNC(=N)N)C(=O)C[C@@H](N)Cc1ccccc1,HIV-1 TAR RNA (18-44),fluorescence,,"25 °C, with: 100-fold excess natural tRNA",1.1 ± 0.4
O=C(Nc1cccc(-c2nn[nH]n2)c1)c1cc(-c2ncc[nH]2)cc(C(F)(F)F)c1,Beta-lactamase CTX-M-14,surface plasmon resonance,,25 °C,8.63 ± 0.17
CCCCCCCCCCCC(=O)Nc1ccccc1SSc1ccccc1NC(=O)CCCCCCCCCCC,ALB,"binding, fluorescence quenching, no site marker",,"pH 7.4, 298 K",0.000943
CC[C@H](C)[C@H](NC(=O)[C@H](CCSC)NC(=O)[C@H](CCC(N)=O)NC(=O)[C@H](CCC(N)=O)NC(=O)CNC(=O)[C@@H](NC(=O)[C@H](CO)NC(=O)[C@@H]1CCCN1C(=O)[C@@H](N)CCC(N)=O)C(C)C)C(=O)N[C@@H](Cc1ccccc1)C(=O)N[C@@H](CCC(=O)O)C(=O)N[C@@H](CCC(=O)O)C(=O)N[C@@H](Cc1c[nH]cn1)C(=O)NCC(=O)N[C@@H](Cc1ccccc1)C(=O)N[C@@H](CCCNC(=N)N)C(=O)N[C@@H](CCCNC(=N)N)C(=O)N[C@H](C(=O)N[C@H](C(=O)N1CCC[C@H]1C(=O)N1CCC[C@H]1C(=O)N[C@H](C(=O)N[C@H](C(=O)N[C@@H](C)C(=O)N[C@H](C(=O)O)[C@@H](C)O)[C@@H](C)O)[C@@H](C)O)[C@@H](C)O)[C@@H](C)O,"Platelet-derived growth factor subunit B, homodimer (Homo sapiens, UniProt P01127)","binding, radioligand equilibrium binding",,"2 h, room temperature",0.056
COC(=O)CCCNC(=O)c1cc(S(N)(=O)=O)c(Cl)cc1NC1CCCCC1,"CA12 (Homo sapiens, UniProt O43570)","binding, ITC",,pH 7,0.056
O=C1Nc2ccccc2C1=NN=Cc1ccc(F)cc1,ALB,UV-Vis titration,Tris-HCl buffer,"pH 7.2, 298 K",112
CO[C@@H]1O[C@H](CO)[C@@H](O[C@H]2O[C@H](CO)[C@@H](OP(=O)(O)O)[C@H](OP(=O)(O)O)[C@H]2O)[C@H]1OP(=O)(O)O,Itpr1 del318-332/R504Q N-terminal region,[3H]IP3 competition binding,,N-terminal fragment R504Q,0.0405
CC(=O)O[C@H]1C=C([C@H](C)[C@H]2CC(C)=C(C)C(=O)O2)[C@@]2(C)CC[C@H]3[C@@H](C[C@H]4O[C@]45[C@@H](O)C=CC(=O)[C@]35C)[C@]12O,"Peroxiredoxin-6 (PRDX6, Homo sapiens, UniProt P30041)","binding, BLI",,,7.51
O=C(Nc1cccc(-c2nn[nH]n2)c1)c1cc(-c2cc[nH]n2)cc(C(F)(F)F)c1,Beta-lactamase CTX-M-14,surface plasmon resonance,,25 °C,16.8 ± 0.5
CC(=O)NCCN(CC(=O)NCCN(CC(=O)NCCN(CC(=O)NCCC(N)=O)C(=O)C[C@@H](N)CCCNC(=N)N)C(=O)C[C@@H](N)Cc1ccccc1)C(=O)C[C@@H](N)Cc1ccccc1,HIV-1 TAR RNA (18-44),fluorescence,,"25 °C, with: 100-fold excess natural tRNA",0.26 ± 0.12
CN(C)c1ccc(/N=N/c2ccc(S(=O)(=O)NCC(=O)O)cc2)cc1,ALB,binding,,pH 7.5,63.3
CC(=O)NCCN(CC(=O)NCCN(CC(=O)NCCN(CC(=O)NCCC(N)=O)C(=O)C[C@@H](N)CCCNC(=N)N)C(=O)C[C@@H](N)CCCNC(=N)N)C(=O)C[C@@H](N)Cc1ccccc1,HIV-1 TAR RNA (18-44),fluorescence,,"25 °C, with: 100-fold excess 15-mer duplex DNA",0.27 ± 0.04
CCCCCCCC(=O)N[C@@H](CCN)C(=O)N[C@H](C(=O)N[C@@H](CCN)C(=O)N[C@H]1CCNC(=O)[C@H]([C@@H](C)O)NC(=O)[C@H](CCN)NC(=O)[C@H](CC(N)=O)NC(=O)[C@H](CC(C)C)NC(=O)[C@@H](Cc2ccccc2)NC(=O)[C@H](CCN)NC1=O)[C@@H](C)O,anti-polymyxin B mouse IgM mAb,SPR,,25 °C,> 25
C[n+]1ccc(/C=N/NC(=O)c2cccc(C(=O)N/N=C/c3cc[n+](C)c4ccccc34)n2)c2ccccc21,G-quadruplex DNA 22CTA (human),"binding, fluorimetric titration",100 mM KCl buffer,"pH 7.2, with: 5'-Cy5-labelled G4 2 nM",0.0083 ± 0.0006

# For quick reference, copied from above:
SMILES,target,assay,test system,conditions,Kd [µM]
CC(=O)NCCN(CCC(=O)NCCN(CCC(=O)NCCN(CCC(=O)NCCC(N)=O)C(=O)[C@@H](N)CCCNC(=N)N)C(=O)[C@@H](N)CCCNC(=N)N)C(=O)[C@@H](N)Cc1ccccc1,HIV-1 TAR RNA (18-44),fluorescence,,"25 °C, with: 100-fold excess 15-mer duplex DNA",0.6 ± 0.15
O=C(Nc1cccc(-c2nn[nH]n2)c1)c1cc(-c2ccncn2)cc(C(F)(F)F)c1,Beta-lactamase CTX-M-14,surface plasmon resonance,,25 °C,8.34 ± 0.08
